Experimental data from different studies.
Values joined by “and” are separate records of one study, mostly repeats; a detail may differ. ± gives the spread as reported.

SMILES = COc1cccc2c1C(=O)c1c(O)c3c(c(O)c1C2=O)C[C@@](O)(C(CO)=NNC(=O)CCCCCCCCCCNC(=O)COCCOCCNC(=O)[C@@H](CC(=O)O)NC(=O)[C@@H](CC(=O)O)NC(=O)[C@@H](CC(=O)O)NC(=O)[C@@H](CC(=O)O)NC(=O)[C@@H](CC(=O)O)NC(=O)[C@@H](CC(=O)O)NC(=O)[C@@H](CC(=O)O)NC(=O)[C@H](N)CC(=O)O)C[C@@H]3O[C@H]1C[C@H](N)[C@H](O)[C@H](C)O1; cell line = SAOS-2; test = cell growth or viability, CCK-8; conditions = 72 h; IC50 = 0.39 µM
SMILES = CCOC(=O)C1CN1S(=O)(=O)c1ccc(C)cc1 (stereo not shown); cell line = Balb/c 3T3 fibroblasts; test = cytotoxicity, neutral red uptake; system = DMEM with 5% FBS; conditions = 24 h; IC50 = 8.8 ± 1.2 µM
SMILES = CCCCn1cc(C(=O)O)c(=O)c2cc(F)c(Nc3ccccc3Cl)c([N+](=O)[O-])c21; cell line = PANC-1; test = cell growth or viability, SRB; IC50 = 114 µM
SMILES = CC=C(C)C(=O)OC1C(O)C2OC(COC(=O)CCC(=O)CCCCCCC(CCCCC)OC3OC(C)C(O)C(O)C3O2)C1OC(=O)C=Cc1ccccc1 (stereo not shown); cell line = NIH/3T3; test = cytotoxicity; IC50 = 0.281 µM
SMILES = COc1cccc2c1C(=O)c1c(O)c3c(c(O)c1C2=O)C[C@@](O)(C(CO)=NNC(=O)CCCCCCCCCCNC(=O)CCCCCCCCCCNC(=O)COCCOCCNC(=O)[C@@H](CC(=O)O)NC(=O)[C@@H](CC(=O)O)NC(=O)[C@@H](CC(=O)O)NC(=O)[C@@H](CC(=O)O)NC(=O)[C@@H](CC(=O)O)NC(=O)[C@@H](CC(=O)O)NC(=O)[C@@H](CC(=O)O)NC(=O)[C@H](N)CC(=O)O)C[C@@H]3O[C@H]1C[C@H](N)[C@H](O)[C@H](C)O1; cell line = SAOS-2; test = cell growth or viability, CCK-8; conditions = 72 h; IC50 = 0.39 µM
SMILES = COC(=O)C1CN1S(=O)(=O)c1ccc(N)cc1 (stereo not shown); cell line = Balb/c 3T3 fibroblasts; test = cytotoxicity, neutral red uptake; system = DMEM with 5% FBS; conditions = 24 h; IC50 = 260 ± 10 µM
SMILES = COC1=C[C@@H]2[C@@H]3Cc4ccc(OC)c(OC(=O)CN(C)C(=O)OC(C)(C)C)c4[C@]2(CCN3C)CC1=O; cell line = RAW264.7; test = cytotoxicity, MTT; conditions = 24 h; IC50 = > 100 µM
SMILES = CO[C@H]1CC(O)=C2C(=O)c3c(cc(C)c(-c4c(C)cc5c(c4O)C(=O)C4=C(O)C[C@H](OC)[C@@H](O)[C@]4(C)O5)c3O)O[C@@]2(C)[C@@H]1O; cell line = NCI-H187; test = cell growth or viability, resazurin; conditions = 5 days; IC50 = 0.9 µM
SMILES = COC1=C[C@@H]2[C@@H]3Cc4ccc(OC)c(OC(=O)[C@H](CC(C)C)NC(=O)OC(C)(C)C)c4[C@]2(CCN3C)CC1=O; cell line = RAW264.7; test = cytotoxicity, MTT; conditions = 24 h; IC50 = > 100 µM
SMILES = C/C(=N\OCCCN1CCCCC1)c1ccc(C(F)(F)F)cc1; cell line = HT-22; test = cell growth or viability, MTT; IC50 = 95.4 µM
SMILES = COC1=C[C@@H]2[C@@H]3Cc4ccc(OC)c(OC(=O)[C@@H](N)Cc5ccccc5)c4[C@]2(CCN3C)CC1=O; cell line = RAW264.7; test = cytotoxicity, MTT; conditions = 24 h; IC50 = > 100 µM
SMILES = CCCCn1cc(C(=O)O)c(=O)c2cc(F)c(Nc3cccc(Cl)c3)c(N)c21; cell line = K562; test = cell growth, SRB; conditions = 72 h; IC50 = 35.8 ± 5.43 µg/mL
SMILES = COC(=O)C1CN1S(=O)(=O)c1ccc(C(F)(F)F)cc1 (stereo not shown); cell line = Balb/c 3T3 fibroblasts; test = cytotoxicity, neutral red uptake; system = DMEM with 5% FBS; conditions = 24 h; IC50 = 210 ± 30 µM
SMILES = CCCCn1cc(C(=O)O)c(=O)c2cc(F)c3c(nnn3-c3cccc(Cl)c3)c21; cell line = T47D; test = cell growth, SRB; conditions = 72 h; IC50 = 29.4 ± 3.68 µg/mL
SMILES = CNC(=O)C1CN1S(=O)(=O)c1ccc(C(C)(C)C)cc1 (stereo not shown); cell line = Balb/c 3T3 fibroblasts; test = cytotoxicity, neutral red uptake; system = DMEM with 5% FBS; conditions = 24 h; IC50 = 28 ± 4 µM
SMILES = CCCCn1cc(C(=O)O)c(=O)c2cc(F)c(Nc3ccccc3Cl)c(N)c21; cell line = PANC-1; test = cell growth, SRB; conditions = 72 h; IC50 = 30 ± 4.87 µg/mL
SMILES = COC(=O)C1CN1S(=O)(=O)c1ccc(Cl)cc1 (stereo not shown); cell line = Balb/c 3T3 fibroblasts; test = cytotoxicity, neutral red uptake; system = DMEM with 5% FBS; conditions = 24 h; IC50 = 100 ± 20 µM
SMILES = CCCCn1cc(C(=O)O)c(=O)c2cc(F)c(Nc3cccc(Cl)c3)c([N+](=O)[O-])c21; cell line = PANC-1; test = cell growth or viability, SRB; IC50 = 49 µM and 49.1 µM
SMILES = CC(C)[C@H](NC(=O)[C@H](CCC(=O)O)NC(=O)[C@@H](NC(=O)[C@@H](C)c1cccc(C(=O)c2ccccc2)c1)C(C)C)C(=O)N[C@@H](CCC(=O)O)C(=O)O; cell line = rat arthritic fibroblast-like synoviocytes; conditions = 48 h; IC50 = 223 µg/mL
SMILES = COC1=C[C@@H]2[C@@H]3Cc4ccc(OC)c(OC(=O)[C@H](C)NC(=O)OC(C)(C)C)c4[C@]2(CCN3C)CC1=O; cell line = RAW264.7; test = cytotoxicity, MTT; conditions = 24 h; IC50 = 19.1 ± 2.43 µM
SMILES = O=c1[nH]c(=O)c2cccc(O)c2o1; cell line = NCI-H187; test = cytotoxicity; IC50 = 38.7 µM
SMILES = COC1=C[C@@H]2[C@@H]3Cc4ccc(OC)c(OC(=O)c5cnc(C)cn5)c4[C@]2(CCN3C)CC1=O; cell line = RAW264.7; test = cytotoxicity, MTT; conditions = 24 h; IC50 = > 100 µM
SMILES = NC(=O)C1CN1S(=O)(=O)c1ccc([N+](=O)[O-])cc1 (stereo not shown); cell line = Balb/c 3T3 fibroblasts; test = cytotoxicity, neutral red uptake; system = DMEM with 5% FBS; conditions = 24 h; IC50 = 20 ± 2 µM
SMILES = CC(=O)O[C@H](CC(=O)O[C@@H]1COC(=O)c2csc(n2)[C@H](C(C)C)OC(=O)[C@@H](C)[C@H](CCCC(C)(Cl)Cl)OC(=O)c2csc1n2)[C@H](CC(C)C)NC(=O)[C@H](C(C)C)N(C)C; cell line = H-460; test = MTT; conditions = 48 h, medium with 10% FBS; IC50 = 0.0048 to 1.8 µM
SMILES = CCCc1ccc(S(=O)(=O)N2CC2C(=O)OC)cc1 (stereo not shown); cell line = Balb/c 3T3 fibroblasts; test = cytotoxicity, neutral red uptake; system = DMEM with 5% FBS; conditions = 24 h; IC50 = 180 ± 6 µM
SMILES = CCCCn1cc(C(=O)O)c(=O)c2cc(F)c3c(nnn3-c3ccccc3Cl)c21; cell line = T47D; test = cell growth, SRB; conditions = 72 h; IC50 = 71.6 ± 6.6 µg/mL
SMILES = CN(C)C(=O)C1CN1S(=O)(=O)c1ccc(N(C)C)cc1 (stereo not shown); cell line = Balb/c 3T3 fibroblasts; test = cytotoxicity, neutral red uptake; system = DMEM with 5% FBS; conditions = 24 h; IC50 = 39 ± 3 µM
SMILES = CC[C@H](C)[C@H](NC(=O)OC(C)(C)C)C(=O)Oc1c(OC)ccc2c1[C@@]13CCN(C)[C@@H](C2)[C@H]1C=C(OC)C(=O)C3; cell line = RAW264.7; test = cytotoxicity, MTT; conditions = 24 h; IC50 = > 100 µM
